Measurements from different studies.
Compare with care: the assays were run in different laboratories.
Organism: HIV-1

COc1ccc(C=NNC(=O)CN2c3c(n[nH]c3-c3cccc(Cl)c3)-c3ccccc3S2(=O)=O)c(OC)c1OC  EC50 (viral replication; PBMC): < 5 µM
Nc1c(C(=O)NCc2ccc(F)cc2F)c(=O)n(O)c2ncc(CCC(=O)NCCO)cc12  EC50 (viral infectivity, single-round infection; HOS, integrase wild type): ≥ 0.2 µM
CC[C@H](C)CN(C[C@@H](O)[C@H](Cc1ccccc1)NC(=O)[C@@H](NC(C)=O)[C@@H](C)CC)S(=O)(=O)c1ccc2ncsc2c1  EC50 (viral replication, Monogram susceptibility; clade C patient isolate): 0.0035 µM
N=C(N)NCCC[C@H](NC(=O)[C@H](CCCNC(=N)N)NC(=O)[C@H](CCCNC(=N)N)NC(=O)[C@H](CCCNC(=N)N)NC(=O)[C@H](CCCNC(=N)N)NC(=O)[C@H](CCCNC(=N)N)NC(=O)[C@H](CCCNC(=N)N)NC(=O)CCCCCCCCCCCCC(=O)OC[C@@H]1O[C@H](n2cc(F)c(N)nc2=O)CS1)C(=O)O  EC50 (viral replication; single-round infection, X4 and R5 virus): 1.5 to 3 µM
CN(C)c1ccc(C=NNC(=O)CN2c3c(n[nH]c3-c3cccc(Cl)c3)-c3ccccc3S2(=O)=O)cc1  EC50 (viral replication; PBMC): 5.8 µM
Cc1c2c(nn1CC(=O)NCc1ccccc1Cl)-c1ccccc1S(=O)(=O)N2C  EC50 (viral replication; PBMC): < 20 µM
CC(=NNC(=O)CN1c2c(-c3ccccc3)n[nH]c2-c2ccccc2S1(=O)=O)c1sccc1Cl  EC50 (viral replication; PBMC): 17.4 µM
COc1ccccc1CNC(=O)Cn1nc2c(c1C)N(C)S(=O)(=O)c1ccccc1-2  EC50 (viral replication; PBMC): < 20 µM
CC(=NNC(=O)CN1c2c(-c3ccccc3)n[nH]c2-c2ccccc2S1(=O)=O)c1ccc([N+](=O)[O-])s1  EC50 (viral replication; PBMC): > 100 µM
O=C(CN1c2c(n[nH]c2-c2cccc(Cl)c2)-c2ccccc2S1(=O)=O)NN=Cc1cccc(Cl)c1  EC50 (viral replication; PBMC): > 10 µM

For quick reference, copied from above:
CC(=NNC(=O)CN1c2c(-c3ccccc3)n[nH]c2-c2ccccc2S1(=O)=O)c1ccc([N+](=O)[O-])s1  EC50 (viral replication; PBMC): > 100 µM
